Published values collected from several papers.
A part holds a random share of what one study measured. Positions count from the first letter of the parent shown.

Block 1 — target: CCNE1, cyclin fold, Cln2 fusion (human); technique: yeast growth competition, sequencing; medium: yeast; notes: strong parent motif; reference: not given; reading: higher = stronger binding; measurement: normalised enrichment score
Starting sequence: E2F1 docking peptide (human); PPVKRRLDLETDH
PPVKQRLDLETDH [R5Q]: 0.125
PPVCRRLDLETDH [K4C]: 2.76
PPYKRRLDLETDH [V3Y]: 0.994
NPVKRRLDLETDH [P1N]: 1.28
PPVKRRKDLETDH [L7K]: -0.387
PPVKRRLDLEMDH [T11M]: 2.71
PPVKRRLDLETNH [D12N]: 1.36
PPVKRRLDLETDV [H13V]: 1.98
PPVKRRSDLETDH [L7S]: -0.427
PPVKSRLDLETDH [R5S]: -0.449
PPEKRRLDLETDH [V3E]: 0.436
PPVKRRLDLETIH [D12I]: 0.94
PPVKRRGDLETDH [L7G]: -0.704
PPVKRRLDLETDC [H13C]: 2.52
PPVKLRLDLETDH [R5L]: 0.164
PPVKRRLRLETDH [D8R]: 0.71
PPVKRRLCLETDH [D8C]: 1.54
PPVKRRLDLRTDH [E10R]: 0.901
PPVKRRLDLETDS [H13S]: 2.67

Block 2 — technique: universal PBM; form: double-stranded DNA, one strand shown; medium: in vitro; tested at: not given; reading: higher = stronger binding; measurement: E-score
Target: Sal-like protein 4, full length isoform B (SALL4, Homo sapiens, UniProt Q9UJQ4-2, residues 1-616)
Notes: 8-mer, flanks averaged, mean of replicates
Residues (chain): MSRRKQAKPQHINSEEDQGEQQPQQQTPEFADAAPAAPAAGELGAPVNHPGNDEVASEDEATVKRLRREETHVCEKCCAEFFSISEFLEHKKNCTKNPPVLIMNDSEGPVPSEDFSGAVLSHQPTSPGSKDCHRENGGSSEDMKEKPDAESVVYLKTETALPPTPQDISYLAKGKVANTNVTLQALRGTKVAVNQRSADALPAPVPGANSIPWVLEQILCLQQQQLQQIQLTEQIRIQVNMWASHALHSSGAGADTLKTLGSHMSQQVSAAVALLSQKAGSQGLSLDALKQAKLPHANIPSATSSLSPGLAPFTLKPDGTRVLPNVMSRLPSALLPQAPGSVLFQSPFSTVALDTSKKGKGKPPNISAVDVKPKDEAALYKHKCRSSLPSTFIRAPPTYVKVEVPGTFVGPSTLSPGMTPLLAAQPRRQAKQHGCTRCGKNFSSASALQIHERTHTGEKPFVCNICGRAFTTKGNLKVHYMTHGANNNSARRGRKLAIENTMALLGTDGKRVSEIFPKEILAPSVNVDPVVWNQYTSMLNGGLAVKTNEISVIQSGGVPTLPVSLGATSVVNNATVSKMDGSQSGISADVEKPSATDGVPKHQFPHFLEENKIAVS
ATCTGACC: 0.0372
GGCACCCC: -0.278
GAGCTCGC: -0.246
AGCACCCA: -0.118
CTCGTTGC: -0.0583
GCATAACA: 0.251
AGAAACGA: -0.00063
GAGTTCGC: -0.285
CTTCAGTA: -0.0725
AAGTTCGA: 0.0422
GAGTCTCC: -0.176
AGGAGGTA: -0.0222
AAGGGGTG: -0.237
AGGACACC: -0.237
CAACTTCA: 0.0148
CATAGGGG: -0.153
GGTCTGGA: -0.113
AGTGTCAG: -0.114
TGGACAAA: 0.0626
AGGTACAT: 0.149
CATTTGAG: 0.11
CATTATCG: 0.0992
TCGCGAAA: -0.101
GCAGGGCA: -0.165
AGCGTGCA: -0.0509

Block 3 — technique: DHFR PCA, deep sequencing; medium: yeast; together with: (+)-ABA 4.8 µM; reference: wild-type fitted maximum; reading: higher = stronger binding; measurement: relative binding score
Target: ABI1, truncated, D143A, DHFR fusion (Arabidopsis thaliana)
Notes: methotrexate growth selection, single substitutions
Starting sequence: PYL1, truncated, DHFR fusion (Arabidopsis thaliana); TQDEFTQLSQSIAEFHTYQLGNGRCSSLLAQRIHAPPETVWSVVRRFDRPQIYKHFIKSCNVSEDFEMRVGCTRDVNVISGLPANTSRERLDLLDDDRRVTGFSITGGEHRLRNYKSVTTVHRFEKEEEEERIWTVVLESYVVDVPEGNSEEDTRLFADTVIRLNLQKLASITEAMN
P83N: -0.131%
E130Q: 76.2%
S63P: 78.4%
T135G: -6.79%
M68N: 56.1%
T86E: 32%
H55R: 85.9%
L156D: 36.6%
A84P: 13.4%
P36F: 25.4%
Q2W: 66.4%
P36S: 69.9%
L20F: 56.1%
S11K: 51.4%
E139Y: 73.9%
E129L: 62.7%
V118C: 69.1%
T120R: 5.71%
Y53L: -4.5%

Mixed results
PhoQ, residues 284 288 289 292 302 303 ASVMEA  fold induction (PhoP, residues 12 14 15 18 19 LFHKL (Escherichia coli, UniProt P23836); Sort-seq, refers to: YFP reporter; E. coli; PhoQ-PhoP variant library, together with: 10 µM Mg2+; reference: high Mg2+ state, higher = stronger signaling): 22.4

Some of these lines once more (block 1):
PPVKRRLDLETDV [H13V]: 1.98
PPVKRRKDLETDH [L7K]: -0.387
PPVKRRLDLRTDH [E10R]: 0.901
